Measurements of several laboratories.
Compare with care: the assays were run in different laboratories. ± gives the spread as reported.

SMILES	assay	system	setting	AUC(0-last)
CC(C)(C)OC[C@@H]1C(=O)NCCN1C(=O)C[C@H](N)Cc1cc(F)c(F)cc1F	–	human, male, plasma	oral, single dose, fixed-dose combination with metformin, fed	0.167 ± 0.0285 µg·h/mL
Cc1c(C(=O)Nc2ccc(N3C[C@@H](C)O[C@@H](C)C3)nc2)cccc1-c1ccc(OC(F)(F)F)cc1	–	human, plasma	oral, 400 mg once daily, cycle 1 day 15	9.9 µg·h/mL
CCOCCn1c(C2CCN(CCc3ccc(C(C)(C)C(=O)O)cc3)CC2)nc2ccccc21	–	human, moderate renal insufficiency, plasma	oral, 20 mg	1.36 µg·h/mL
CC(C)(/C=C(\C#N)C(=O)N1CCC[C@@H](n2nc(-c3ccc(Oc4ccccc4)cc3F)c3c(N)ncnc32)C1)N1CCN(C2COC2)CC1	–	human	400 mg single dose, median, alone	0.316 µg·h/mL
CCCC[C@H](NC(C)=O)C(=O)N[C@H]1CC(=O)NCCCC[C@@H](C(=O)O)NC(=O)[C@H](Cc2c[nH]c3ccccc23)NC(=O)[C@H](CCCN=C(N)N)NC(=O)[C@@H](Cc2ccccc2)NC(=O)[C@H](Cc2cnc[nH]2)NC1=O	LC-MS/MS, non-compartmental	human, plasma	subcutaneous, 2.5 mg once daily	0.277 ± 0.0515 µg·h/mL
CC#CC(=O)NCCCC(=O)c1nc(-c2ccc(C(=O)Nc3ccccn3)cc2)c2c(N)nccn12	–	human, severe hepatic impairment, plasma	oral, 50 mg acalabrutinib, single, geometric mean	0.638 µg·h/mL
CN1CCc2nc(C(=O)N[C@@H]3C[C@@H](C(=O)N(C)C)CC[C@@H]3NC(=O)C(=O)Nc3ccc(Cl)cn3)sc2C1	–	human, plasma	60 mg, fed, together with: dronedarone	1.66 µg·h/mL
CS(=O)(=O)n1cc2c(n1)CN([C@H]1CO[C@H](c3cc(F)ccc3F)[C@@H](N)C1)C2	–	healthy male human, plasma	oral, 200 mg, fasted single dose	158 µM·h
CN(CCOc1ccc(CC2SC(=O)NC2=O)cc1)c1ccccn1 (stereo not drawn)	–	human, both sexes, plasma	oral, 4 mg alone, day 1, geometric mean	1450 µg·h/mL

For quick reference, copied from above:
SMILES	assay	system	setting	AUC(0-last)
CC#CC(=O)NCCCC(=O)c1nc(-c2ccc(C(=O)Nc3ccccn3)cc2)c2c(N)nccn12	–	human, severe hepatic impairment, plasma	oral, 50 mg acalabrutinib, single, geometric mean	0.638 µg·h/mL
